# Results of several laboratories.
# Protocols differ between the studies behind these lines. Numbers after ± are the reported error.
SMILES,cell line,test,system,conditions,CC50 [µM]
CC[C@H](C)[C@@H]1NC(=O)[C@H](CCCCN)NC(=O)[C@H](CCCCN)NC(=O)[C@H](Cc2ccc(O)cc2)NC(=O)[C@H](CC(C)C)NC(=O)[C@@H]2CCCN2C(=O)[C@H](C)NC(=O)CNC(=O)CNC(=O)[C@H](CO)NC(=O)CNC(=O)CNC(=O)[C@H](CO)NC(=O)[C@H](CCC(=O)O)NC(=O)[C@H](CC(C)C)NC(=O)[C@H](CC(C)C)NC(=O)[C@H](CCCCN)NC(=O)[C@H](CCCCN)NC(=O)[C@H]([C@@H](C)CC)NC(=O)[C@H]([C@@H](C)CC)NC(=O)[C@H](CCCCN)NC(=O)[C@H](CCCCN)NC(=O)[C@H](Cc2ccc(O)cc2)NC(=O)[C@H](CC(C)C)NC(=O)[C@@H]2CCCN2C(=O)CNC(=O)CNC(=O)CSC[C@@H](C(N)=O)NC(=O)[C@H](CC(C)C)NC(=O)[C@H](CCCCN)NC(=O)[C@H](CCCCN)NC(=O)[C@H]([C@@H](C)CC)NC1=O,MM96L,"cell viability, resazurin",,24 h,3.5 ± 0.2
N=C(N)NCCC[C@H]1NC(=O)[C@H](CCCN)NC(=O)[C@@H](Cc2c[nH]cn2)NC(=O)[C@H](Cc2ccc(O)cc2)NC(=O)[C@@H](Cc2ccc(O)cc2)NC(=O)[C@H](Cc2ccccc2)NC(=O)[C@@H](Cc2c[nH]c3ccccc23)NC(=O)[C@H](CO)NC1=O,SK-OV-3,cytotoxicity,,,6.9
O=C(CCN(CCC(=O)NC(Cc1c[nH]c2ccccc12)C(=O)O)C(=O)c1cc(C(=O)N(CCC(=O)NC(Cc2c[nH]c3ccccc23)C(=O)O)CCC(=O)NC(Cc2c[nH]c3ccccc23)C(=O)O)cc(C(=O)N(CCC(=O)NC(Cc2c[nH]c3ccccc23)C(=O)O)CCC(=O)NC(Cc2c[nH]c3ccccc23)C(=O)O)c1)NC(Cc1c[nH]c2ccccc12)C(=O)O (centres unmarked),RD,,,3 (unit not given),> 57
C1=[N+]2CCCC[N+]3=Cc4ccc5[n]4[Au-]23[n]2c1ccc2-c1nc2ccccc2nc1-5.F[P-](F)(F)(F)(F)F,NCI60 human cancer panel,,,mean of all cell lines,86
COc1ccccc1CNC(=O)CSc1c[nH]c2ccccc12,HEK293T,"cell viability, CCK-8",,24 h,75.5
O=C(CCN(CCC(=O)NC(Cc1c[nH]c2ccccc12)C(=O)O)C(=O)CCOCC(COCCC(=O)N(CCC(=O)NC(Cc1c[nH]c2ccccc12)C(=O)O)CCC(=O)NC(Cc1c[nH]c2ccccc12)C(=O)O)(COCCC(=O)N(CCC(=O)NC(Cc1c[nH]c2ccccc12)C(=O)O)CCC(=O)NC(Cc1c[nH]c2ccccc12)C(=O)O)COCCC(=O)N(CCC(=O)NC(Cc1c[nH]c2ccccc12)C(=O)O)CCC(=O)NC(Cc1c[nH]c2ccccc12)C(=O)O)NC(Cc1c[nH]c2ccccc12)C(=O)O (centres unmarked),RD,,,3 (unit not given),> 60
C=C1C(=O)O[C@@H]2C[C@H](C)[C@@H]3C[C@H](OC(C)=O)[C@H](OC(C)=O)[C@@]3(C)C[C@H]12,mouse Splenocyte,"cell growth or viability, flow cytometry",BALB/c,48 h,241
CC[C@H](C)[C@H](NC(=O)[C@H](CCCNC(=N)N)NC(=O)[C@H](Cc1ccccc1)NC(=O)[C@H](Cc1cnc[nH]1)NC(=O)[C@H](C)NC(=O)[C@H](Cc1ccccc1)NC(=O)[C@H](CC(C)C)NC(=O)[C@H](CC(C)C)NC(=O)[C@H](CCC(N)=O)NC(=O)[C@H](CCC(N)=O)NC(=O)[C@H](CC(C)C)NC(C)=O)C(=O)NCC(=O)N[C@@H](CCCNC(=N)N)C(=O)N[C@@H](CCCNC(=N)N)C(=O)N[C@@H](CCCNC(=N)N)C(=O)N[C@@H](CCCNC(=N)N)C(=O)N[C@@H](CCCNC(=N)N)C(=O)N[C@@H](CCCNC(=N)N)C(=O)N[C@@H](CCCNC(=N)N)C(=O)N[C@@H](CCCNC(=N)N)C(N)=O,MT4 Luc,luciferase signal decrease,,,> 5
C=C(C)[C@@H]1CC[C@]2(C(=O)NC(CO)Cc3ccccc3)CC[C@]3(C)[C@H](CC[C@@H]4[C@@]5(C)CCCNC(C)(C)[C@@H]5CC[C@]43C)[C@@H]12 (some centres unmarked),C-33 A,"cell viability, CellTiter-Glo",,,0.78
O=C(CCN(CCC(=O)NC(Cc1c[nH]c2ccccc12)C(=O)O)C(=O)C1CC(C(=O)N(CCC(=O)NC(Cc2c[nH]c3ccccc23)C(=O)O)CCC(=O)NC(Cc2c[nH]c3ccccc23)C(=O)O)CC(C(=O)N(CCC(=O)NC(Cc2c[nH]c3ccccc23)C(=O)O)CCC(=O)NC(Cc2c[nH]c3ccccc23)C(=O)O)C1)NC(Cc1c[nH]c2ccccc12)C(=O)O (centres unmarked),RD,,,3 (unit not given),> 85
Cc1cc(C)cc([C@H]2C[C@@H]2C(=O)N[C@H](C(=O)NCc2ccccc2)c2ccc(C)c(C)c2)c1,BHK-21,"cell growth or viability, MTT",,24 h,> 100
CC(=O)CCC1C(=O)NC(C(C)C)C(=O)NC(Cc2cc(O)cc(F)c2)C(=O)N2CCCC(N2)C(=O)OC(C(C)=CC=CC(=O)N2CCCCO2)CC=CC=CC(O)C(C)C1O (centres unmarked),Huh-5-2,MTS,,3 days,> 100
O=C(CSc1[nH]c2ccccc2c1SCC(=O)Nc1ccc(Cl)c(Cl)c1)Nc1ccc(Cl)c(Cl)c1,HEK293T,"cell viability, CCK-8",,24 h,96.2
CC[C@H](C)[C@H](NC(=O)[C@H](C)NC(=O)[C@H](Cc1ccccc1)NC(=O)[C@H](Cc1cnc[nH]1)NC(=O)[C@@H](NC(=O)[C@H](Cc1ccccc1)NC(=O)[C@H](CC(C)C)NC(=O)[C@H](CC(C)C)NC(=O)[C@H](CCC(N)=O)NC(=O)[C@H](CCC(N)=O)NC(=O)[C@H](CC(C)C)NC(C)=O)[C@@H](C)CC)C(=O)NCC(=O)N[C@@H](CCCNC(=N)N)C(=O)N[C@@H](CCCNC(=N)N)C(=O)N[C@@H](CCCNC(=N)N)C(=O)N[C@@H](CCCNC(=N)N)C(=O)N[C@@H](CCCNC(=N)N)C(=O)N[C@@H](CCCNC(=N)N)C(=O)N[C@@H](CCCNC(=N)N)C(=O)N[C@@H](CCCNC(=N)N)C(N)=O,MT4 Luc,luciferase signal decrease,,,10
CC[C@H](C)[C@@H]1NC(=O)[C@H](CCCCN)NC(=O)[C@H](CCCCN)NC(=O)[C@H](Cc2ccc(O)cc2)NC(=O)[C@H](CC(C)C)NC(=O)[C@@H]2CCCN2C(=O)[C@H](C)NC(=O)CNC(=O)CNC(=O)[C@H](CO)NC(=O)CNC(=O)CNC(=O)[C@H](CO)NC(=O)[C@H]([C@@H](C)O)NC(=O)[C@H](CC(C)C)NC(=O)[C@H](CC(C)C)NC(=O)[C@H](C)NC(=O)[C@H](Cc2c[nH]c3ccccc23)NC(=O)[C@H](Cc2ccc(O)cc2)NC(=O)[C@H](Cc2c[nH]cn2)NC(=O)[C@H](CCC(=O)O)NC(=O)[C@H](Cc2ccccc2)NC(=O)[C@H]([C@@H](C)O)NC(=O)[C@H](CC(C)C)NC(=O)[C@@H]2CCCN2C(=O)CNC(=O)CNC(=O)CSC[C@@H](C(N)=O)NC(=O)[C@H](CC(C)C)NC(=O)[C@H](CCCCN)NC(=O)[C@H](CCCCN)NC(=O)[C@H]([C@@H](C)CC)NC1=O,MM96L,"cell viability, resazurin",,24 h,> 32
O=C(CSc1c[nH]c2ccccc12)NCc1ccc(Cl)c(Cl)c1,HEK293T,"cell viability, CCK-8",,24 h,84.2
CCN(CC)CCCC(C)Nc1c2cc(Cl)ccc2nc2ccc(Cl)cc12 (centres unmarked),U2OS ACE2-GFP,,,20 (unit not given),4.41
C=C(C)[C@@H]1CC[C@]2(CO)CC[C@]3(C)[C@H](CC[C@@H]4[C@@]5(C)CCCNC(C)(C)[C@@H]5CC[C@]43C)[C@@H]12,primary HFF,"cell viability, CellTiter-Glo",,HSV-1 assay setting,25.7
COc1ccc(-c2cnc3[nH]cc(C#Cc4cccnc4)c3c2)cc1OC,"Calu-3, infected",alamarBlue,,24 h post infection,> 20
Cc1ccc(C(C)C)cc1.F[P-](F)(F)(F)(F)F.[Cl][Ru-]1[NH2+]CC[NH2+]1,Jurkat,PI flow cytometry,,20 h,129
CC(C)C[C@H](NC(=O)OCc1ccccc1)C(=O)N[C@@H](C[C@@H]1CCNC1=O)C(O)S(=O)(=O)O (some centres unmarked),RD,,,"3 (unit not given), 37 °C",> 50
CC(C)C[C@@H]1NC(=O)[C@@H](Cc2c[nH]c3ccccc23)NC(=O)[C@H](CCCNC(=N)N)NC(=O)[C@@H](CCC(=O)O)NC(=O)[C@H](CCC(N)=O)NC(=O)[C@@H](CCC(=O)O)NC(=O)[C@H](CCCNC(=N)N)NC(=O)[C@@H](Cc2c[nH]c3ccccc23)NC1=O,SK-OV-3,cytotoxicity,,,> 40
CCS(=O)(=O)N1CC(CC#N)(n2cc(-c3ncnc4[nH]ccc34)cn2)C1,"Calu-3, infected",alamarBlue,,24 h post infection,> 20
CCC(C)SSc1ncc[nH]1 (centres unmarked),RD,,,"3 (unit not given), 33 °C, with: MgCl2 30 mM",16.5
COc1ccc(CNC(=O)C(NC(=O)C2CC2c2cc(C)cc(C)c2)c2ccc(C)c(C)c2)c(OC)c1 (mixture of isomers),BHK-21,"cell growth or viability, MTT",,24 h,> 100
O=C1CC(c2ccccc2)Oc2ccccc21 (centres unmarked),Vero E6-GFP,cell viability,,"72 h, with: CP-100356 2 µM",> 100
